{"data": "Published values gathered from unrelated publications", "note": "A part holds a random share of what one study measured. Substitutions count along the parent as printed."}
{"data": "Study 1", "target": "ABI1, truncated, D143A, DHFR fusion (Arabidopsis thaliana)", "technique": "DHFR PCA, deep sequencing", "matrix": "yeast", "setting": "methotrexate growth selection, single substitutions", "together with": "(+)-ABA 200 µM", "relative to": "wild-type fitted maximum", "direction": "higher = stronger binding", "starting sequence": "PYL1, truncated, DHFR fusion (Arabidopsis thaliana); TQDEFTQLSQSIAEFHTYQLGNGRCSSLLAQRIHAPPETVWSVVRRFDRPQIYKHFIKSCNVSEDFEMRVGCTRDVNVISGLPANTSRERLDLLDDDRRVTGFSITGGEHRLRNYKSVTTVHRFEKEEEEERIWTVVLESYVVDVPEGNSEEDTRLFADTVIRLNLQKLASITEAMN"}
{"Variant": "S63W", "relative binding score [%]": 82.8}
{"Variant": "V118H", "relative binding score [%]": 95.3}
{"Variant": "H34S", "relative binding score [%]": 98.2}
{"Variant": "S26V", "relative binding score [%]": 88.7}
{"Variant": "T120I", "relative binding score [%]": 7.87}
{"Variant": "L166H", "relative binding score [%]": 89.9}
{"Variant": "D48H", "relative binding score [%]": 60.7}
{"Variant": "T160P", "relative binding score [%]": -2.8}
{"Variant": "S59K", "relative binding score [%]": 100}
{"Variant": "H34M", "relative binding score [%]": 104}
{"Variant": "R155E", "relative binding score [%]": 54.4}
{"Variant": "Q7G", "relative binding score [%]": 102}
{"data": "Study 2", "target": "POU, POU domain (Salpingoeca helianthica)", "technique": "Spec-seq", "molecule type": "double-stranded DNA, one strand shown", "matrix": "in vitro", "tested at": "not given", "setting": "whole probe, mean of replicates", "relative to": "not given", "direction": "lower = stronger binding", "constant ends, left off below": "GAGTCGTCTCGTCAGCAC … CCGTAGAGCACTCAGGTC", "Residues (chain)": "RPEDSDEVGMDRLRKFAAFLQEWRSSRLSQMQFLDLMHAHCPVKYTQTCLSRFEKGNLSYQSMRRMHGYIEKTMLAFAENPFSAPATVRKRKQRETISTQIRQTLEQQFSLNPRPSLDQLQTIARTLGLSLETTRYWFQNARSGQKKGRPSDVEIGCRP"}
{"Oligonucleotide": "CTAATAAT", "relative binding energy [ln ratio]": -0.641}
{"Oligonucleotide": "ATGCATTT", "relative binding energy [ln ratio]": 1.23}
{"Oligonucleotide": "GATATAAT", "relative binding energy [ln ratio]": 0.26}
{"Oligonucleotide": "ATGCGAAG", "relative binding energy [ln ratio]": 1.53}
{"Oligonucleotide": "ATGGCCAT", "relative binding energy [ln ratio]": 1.21}
{"Oligonucleotide": "ATTCCCAT", "relative binding energy [ln ratio]": 0.972}
{"Oligonucleotide": "CAGGTAAT", "relative binding energy [ln ratio]": 0.595}
{"Oligonucleotide": "ATGCTCAT", "relative binding energy [ln ratio]": 1.2}
{"Oligonucleotide": "AGTATAAT", "relative binding energy [ln ratio]": 0.445}
{"Oligonucleotide": "ATGCTACC", "relative binding energy [ln ratio]": 1.3}
{"Oligonucleotide": "TACTTAAT", "relative binding energy [ln ratio]": 0.187}
{"Oligonucleotide": "CTCGTAAT", "relative binding energy [ln ratio]": -0.73}
{"data": "Study 3", "target": "CCNE2, cyclin fold, Cln2 fusion (human)", "technique": "yeast growth competition, sequencing", "matrix": "yeast", "setting": "weak parent motif", "relative to": "not given", "direction": "higher = stronger binding", "starting sequence": "CENPC docking peptide (human); VKTKKRLNFDDKV"}
{"Variant": "VKTKRRLNLDDKV [K5R F9L]", "normalised enrichment score": 0.444}
{"Variant": "VKTKKRANFDDKV [L7A]", "normalised enrichment score": 0.54}
{"Variant": "VKTKKRLAFDDKV [N8A]", "normalised enrichment score": 0.468}
{"Variant": "VKTKKRLNFDDAV [K12A]", "normalised enrichment score": 0.96}
{"Variant": "VKTKKRLNFADKV [D10A]", "normalised enrichment score": -0.0151}
{"Variant": "VKTKARLNFDDKV [K5A]", "normalised enrichment score": 0.759}
{"Variant": "AKTKKRLNFDDKV [V1A]", "normalised enrichment score": 0.717}
{"data": "Other studies, line by line"}
{"Molecule": "PhoQ, residues 284 288 289 292 302 303 SLSVQF", "target": "PhoP, residues 12 14 15 18 19 STWGI (Escherichia coli, UniProt P23836)", "test": "Sort-seq, measured: YFP reporter", "test system": "E. coli", "conditions": "PhoQ-PhoP variant library, together with: 10 µM Mg2+", "how to read": "relative to: high Mg2+ state, higher = stronger signaling", "quantity": "fold induction", "result": 18.2}
